Published values pooled from the literature.
Every numbered part comes from another study and shows a few of its results, in no order.

Set 1
Target: Centromere-binding protein 1, full length, N-terminal tag (CBF1, Saccharomyces cerevisiae, UniProt P17106, residues 1-351)
Sequence of UniProt P17106 (whole entry, looked up): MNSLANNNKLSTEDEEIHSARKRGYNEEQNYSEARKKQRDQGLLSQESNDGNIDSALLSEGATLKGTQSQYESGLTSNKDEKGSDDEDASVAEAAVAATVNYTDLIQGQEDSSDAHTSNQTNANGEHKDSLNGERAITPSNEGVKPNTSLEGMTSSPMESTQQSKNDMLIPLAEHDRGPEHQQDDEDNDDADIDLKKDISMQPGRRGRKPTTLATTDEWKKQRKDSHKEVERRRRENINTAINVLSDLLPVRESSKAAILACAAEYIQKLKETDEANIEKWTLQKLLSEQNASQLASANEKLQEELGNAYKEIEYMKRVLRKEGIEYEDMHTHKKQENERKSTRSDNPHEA
Method: protein-binding microarray
Form: double-stranded DNA, one strand shown
Matrix: in vitro
Concentration: 0.8 µM
Notes: whole 60-bp probe, no competitor
Reading: higher = stronger binding
For `GAATTTGTATGTATGCGTGTGTTAACTATCCTGTAGGTCTTGATTCGCTTGACGCTGCTG`, the fluorescence intensity was 565 a.u.
`GAAGTGTGTGTGTGATATGTGACGTGTATACGTTAGGTCTTGATTCGCTTGACGCTGCTG` has a fluorescence intensity of 639 a.u.
For `CTAAAGATCACCACGCACGTTTAGGGGATCGGATTCGTCTTGATTCGCTTGACGCTGCTG`, the fluorescence intensity was 567 a.u.

Set 2
Target: Histone acetyltransferase KAT6A, both winged helices, GST fusion (KAT6A, Homo sapiens, UniProt Q92794, residues 1-181)
Method: protein binding microarray
Form: double-stranded DNA, one strand shown
Matrix: in vitro
Concentration: not given
Notes: 8-mer, flanks averaged, mean of 2 arrays, mostly near background
Baseline: not given
Reading: higher = stronger binding
Residues (chain): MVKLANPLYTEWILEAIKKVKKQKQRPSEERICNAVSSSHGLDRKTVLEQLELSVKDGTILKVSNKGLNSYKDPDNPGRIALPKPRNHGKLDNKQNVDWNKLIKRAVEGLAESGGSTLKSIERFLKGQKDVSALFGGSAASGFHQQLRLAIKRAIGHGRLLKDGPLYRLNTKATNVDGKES
The E-score of `CGTCTAAC` is reported as 0.153.
`CTCCGGAA` gave an E-score of 0.0565.
The E-score of `AGAGTCCT` is reported as -0.115.
With `GCAGTGCC` the E-score was -0.0314.
The E-score of `CTGTTGGA` is reported as -0.0421.

Set 3
Target: Prothrombin, mature alpha-thrombin (F2, Homo sapiens, UniProt P00734)
Method: aptamer microarray, sandwich
Form: DNA with 2'F-ANA
Matrix: in vitro
Concentration: 200 nM
Notes: whole 15-mer aptamer, many near background
Added: Cy3 exosite-II aptamer, 400 nM
Reading: higher = stronger binding
Sequence: GGTTGGTGTGGTTGG
Under “mean fluorescence intensity”, `2'F-ANA at 4 8 9 13 14 15` is recorded as 71.6 a.u.
For `2'F-ANA at 3 4 8 9 10 11 13`, “mean fluorescence intensity” read 239 a.u.
For `2'F-ANA at 1 2 3 4 6 7 11 12 13`, “mean fluorescence intensity” read 171 a.u.
For `2'F-ANA at 2 5 6 7 12 13 15`, “mean fluorescence intensity” read 100 a.u.
`2'F-ANA at 3 5 8` — result for “mean fluorescence intensity”: 149 a.u.

Other studies, line by line
With `PhoQ, residues 284 288 289 292 302 303 ASTSDA` the fold induction was 5.69 (PhoP, residues 12 14 15 18 19 LQHIR (Escherichia coli, UniProt P23836); Sort-seq, item: YFP reporter; E. coli; PhoQ-PhoP variant library, added: 10 µM Mg2+; baseline: high Mg2+ state, higher = stronger signaling).

Repeated from above (set 2):
With `GCAGTGCC` the E-score was -0.0314.
The E-score of `CTGTTGGA` is reported as -0.0421.
